Experimental data of several laboratories.
Every numbered part comes from another study and shows a few of its results, in no order.
Sequence of UniProt P78368 (whole entry, looked up): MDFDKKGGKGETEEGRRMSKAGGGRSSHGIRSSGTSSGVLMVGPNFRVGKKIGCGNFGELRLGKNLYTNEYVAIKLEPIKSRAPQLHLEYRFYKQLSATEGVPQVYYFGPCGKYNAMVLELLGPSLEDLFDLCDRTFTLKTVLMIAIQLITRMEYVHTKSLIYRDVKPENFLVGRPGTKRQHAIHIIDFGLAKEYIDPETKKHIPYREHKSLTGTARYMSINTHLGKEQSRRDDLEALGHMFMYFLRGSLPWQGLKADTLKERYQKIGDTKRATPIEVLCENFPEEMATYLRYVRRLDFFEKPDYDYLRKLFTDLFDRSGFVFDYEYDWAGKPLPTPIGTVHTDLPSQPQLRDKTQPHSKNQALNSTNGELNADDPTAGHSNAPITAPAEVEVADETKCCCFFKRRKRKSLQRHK
Sequence of UniProt P15056 (whole entry, looked up): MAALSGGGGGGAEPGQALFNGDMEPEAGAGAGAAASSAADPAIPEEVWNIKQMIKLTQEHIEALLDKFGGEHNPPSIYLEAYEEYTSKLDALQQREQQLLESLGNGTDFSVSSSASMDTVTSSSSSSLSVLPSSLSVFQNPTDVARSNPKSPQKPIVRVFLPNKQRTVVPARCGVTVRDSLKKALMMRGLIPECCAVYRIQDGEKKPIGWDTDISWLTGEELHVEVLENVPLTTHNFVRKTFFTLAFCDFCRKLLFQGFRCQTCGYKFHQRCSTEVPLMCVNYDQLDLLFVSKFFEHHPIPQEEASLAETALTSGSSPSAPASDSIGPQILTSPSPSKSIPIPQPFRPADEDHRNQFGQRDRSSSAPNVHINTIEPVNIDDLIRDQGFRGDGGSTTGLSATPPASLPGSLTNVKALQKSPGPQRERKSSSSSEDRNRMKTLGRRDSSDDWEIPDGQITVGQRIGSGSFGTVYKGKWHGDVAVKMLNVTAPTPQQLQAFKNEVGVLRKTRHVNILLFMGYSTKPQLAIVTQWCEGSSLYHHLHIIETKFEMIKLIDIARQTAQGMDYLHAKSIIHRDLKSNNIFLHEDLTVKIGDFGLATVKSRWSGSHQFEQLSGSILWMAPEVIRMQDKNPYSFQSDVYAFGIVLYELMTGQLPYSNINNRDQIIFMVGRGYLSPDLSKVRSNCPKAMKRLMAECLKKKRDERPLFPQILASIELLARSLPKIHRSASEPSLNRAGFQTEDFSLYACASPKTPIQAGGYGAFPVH
Sequence of UniProt Q8NEB9 (whole entry, looked up): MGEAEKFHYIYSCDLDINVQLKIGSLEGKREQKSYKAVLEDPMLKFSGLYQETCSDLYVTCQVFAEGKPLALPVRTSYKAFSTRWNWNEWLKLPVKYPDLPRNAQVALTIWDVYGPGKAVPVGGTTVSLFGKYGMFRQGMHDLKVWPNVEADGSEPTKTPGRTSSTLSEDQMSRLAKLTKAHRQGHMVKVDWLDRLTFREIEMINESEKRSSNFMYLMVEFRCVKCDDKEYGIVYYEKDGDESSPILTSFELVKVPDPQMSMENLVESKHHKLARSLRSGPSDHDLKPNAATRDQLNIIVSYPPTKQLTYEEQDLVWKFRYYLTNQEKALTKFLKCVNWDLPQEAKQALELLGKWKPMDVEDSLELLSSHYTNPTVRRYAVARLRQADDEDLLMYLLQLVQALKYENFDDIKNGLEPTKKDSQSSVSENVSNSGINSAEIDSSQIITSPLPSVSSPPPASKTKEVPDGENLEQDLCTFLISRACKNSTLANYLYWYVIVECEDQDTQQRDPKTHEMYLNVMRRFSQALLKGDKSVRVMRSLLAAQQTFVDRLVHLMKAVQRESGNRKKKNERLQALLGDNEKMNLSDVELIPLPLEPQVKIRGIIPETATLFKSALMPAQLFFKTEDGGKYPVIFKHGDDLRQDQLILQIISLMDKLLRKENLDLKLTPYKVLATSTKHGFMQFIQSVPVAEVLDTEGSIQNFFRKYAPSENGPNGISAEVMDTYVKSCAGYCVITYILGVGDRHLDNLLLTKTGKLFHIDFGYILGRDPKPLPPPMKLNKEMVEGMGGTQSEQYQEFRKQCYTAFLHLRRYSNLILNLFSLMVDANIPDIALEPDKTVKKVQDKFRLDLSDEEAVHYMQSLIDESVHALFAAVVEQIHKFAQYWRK
Sequence of UniProt P21127 (whole entry, looked up): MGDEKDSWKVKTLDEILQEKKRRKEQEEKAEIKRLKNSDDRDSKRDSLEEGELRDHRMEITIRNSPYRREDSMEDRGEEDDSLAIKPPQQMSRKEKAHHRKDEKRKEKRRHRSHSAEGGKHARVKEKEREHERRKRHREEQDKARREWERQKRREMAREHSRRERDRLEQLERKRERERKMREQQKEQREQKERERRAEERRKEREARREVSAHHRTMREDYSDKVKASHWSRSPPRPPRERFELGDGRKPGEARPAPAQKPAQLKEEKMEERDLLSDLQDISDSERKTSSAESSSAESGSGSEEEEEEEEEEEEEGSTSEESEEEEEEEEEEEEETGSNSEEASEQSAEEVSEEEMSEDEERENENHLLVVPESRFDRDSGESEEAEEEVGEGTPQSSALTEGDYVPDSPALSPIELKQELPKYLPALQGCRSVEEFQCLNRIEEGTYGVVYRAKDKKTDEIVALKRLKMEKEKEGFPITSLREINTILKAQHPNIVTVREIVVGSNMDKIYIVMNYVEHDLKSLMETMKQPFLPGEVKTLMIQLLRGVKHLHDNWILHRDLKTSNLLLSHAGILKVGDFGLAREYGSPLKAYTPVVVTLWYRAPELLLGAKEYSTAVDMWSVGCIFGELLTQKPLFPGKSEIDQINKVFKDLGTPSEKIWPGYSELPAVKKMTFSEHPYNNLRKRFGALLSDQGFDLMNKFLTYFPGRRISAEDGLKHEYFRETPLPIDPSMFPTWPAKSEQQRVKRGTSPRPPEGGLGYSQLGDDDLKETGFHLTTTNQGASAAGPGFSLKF
Sequence of UniProt P57058 (whole entry, looked up): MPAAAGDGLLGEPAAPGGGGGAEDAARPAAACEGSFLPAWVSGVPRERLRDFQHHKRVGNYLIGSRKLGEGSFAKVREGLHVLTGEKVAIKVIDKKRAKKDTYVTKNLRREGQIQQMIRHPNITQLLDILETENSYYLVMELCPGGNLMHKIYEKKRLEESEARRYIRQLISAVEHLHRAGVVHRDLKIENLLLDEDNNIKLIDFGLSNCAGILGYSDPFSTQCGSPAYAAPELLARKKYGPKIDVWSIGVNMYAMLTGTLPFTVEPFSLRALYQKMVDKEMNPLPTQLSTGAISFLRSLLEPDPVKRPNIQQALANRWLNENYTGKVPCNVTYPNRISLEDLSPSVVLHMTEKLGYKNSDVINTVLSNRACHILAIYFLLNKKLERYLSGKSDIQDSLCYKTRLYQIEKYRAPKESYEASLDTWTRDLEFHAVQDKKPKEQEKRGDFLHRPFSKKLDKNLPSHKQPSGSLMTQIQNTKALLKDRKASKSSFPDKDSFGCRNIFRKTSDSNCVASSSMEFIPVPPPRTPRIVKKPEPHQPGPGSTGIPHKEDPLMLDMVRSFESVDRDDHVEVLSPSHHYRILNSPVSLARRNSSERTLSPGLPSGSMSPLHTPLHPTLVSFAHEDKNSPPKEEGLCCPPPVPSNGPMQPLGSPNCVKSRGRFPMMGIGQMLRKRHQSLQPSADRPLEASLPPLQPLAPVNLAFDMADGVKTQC
Sequence of UniProt Q96PN8 (whole entry, looked up): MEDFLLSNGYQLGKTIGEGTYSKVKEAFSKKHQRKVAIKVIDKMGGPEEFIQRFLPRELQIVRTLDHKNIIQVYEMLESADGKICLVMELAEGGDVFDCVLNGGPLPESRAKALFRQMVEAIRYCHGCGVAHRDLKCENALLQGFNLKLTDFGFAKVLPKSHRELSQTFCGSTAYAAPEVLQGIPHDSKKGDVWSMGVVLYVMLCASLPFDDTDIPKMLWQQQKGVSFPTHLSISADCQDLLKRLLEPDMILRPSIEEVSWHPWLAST

Study 1
SMILES: C[C@H](c1cccc(C#N)c1)n1cc(Cl)cc(C(N)=O)c1=N
Read-out: cell-free assay
Method: competition with immobilised ligand
Concentration: 1 µM
Measurement: remaining binding
5'-AMP-activated protein kinase catalytic subunit alpha-2 (PRKAA2, Homo sapiens, UniProt P54646): 94%
Dual specificity mitogen-activated protein kinase kinase 6 (MAP2K6, Homo sapiens, UniProt P52564): 100%
Dual specificity mitogen-activated protein kinase kinase 2 (MAP2K2, Homo sapiens, UniProt P36507): 80%
Phosphatidylinositol 4,5-bisphosphate 3-kinase catalytic subunit delta isoform (PIK3CD, Homo sapiens, UniProt O00329): 99%
Dual specificity protein kinase CLK3 (CLK3, Homo sapiens, UniProt P49761): 100%
Serine/threonine-protein kinase WNK3 (WNK3, Homo sapiens, UniProt Q9BYP7): 80%
Serine/threonine-protein kinase PAK 6 (PAK6, Homo sapiens, UniProt Q9NQU5): 100%
Activated CDC42 kinase 1 (TNK2, Homo sapiens, UniProt Q07912): 83%
Calcium/calmodulin-dependent protein kinase type 1G (CAMK1G, Homo sapiens, UniProt Q96NX5): 100%
Serine/threonine-protein kinase D2 (PRKD2, Homo sapiens, UniProt Q9BZL6): 58%
Serine/threonine-protein kinase PLK2 (PLK2, Homo sapiens, UniProt Q9NYY3): 92%
Serine/threonine-protein kinase B-raf (BRAF, Homo sapiens, UniProt P15056): 100%
Receptor tyrosine-protein kinase erbB-3 (ERBB3, Homo sapiens, UniProt P21860): 92%
Phosphatidylinositol 3-kinase catalytic subunit type 3 (PIK3C3, Homo sapiens, UniProt Q8NEB9): 78%
Hormonally up-regulated neu tumor-associated kinase (HUNK, Homo sapiens, UniProt P57058): 89%
Mast/stem cell growth factor receptor Kit (KIT, Homo sapiens, UniProt P10721, D816V): 87%
Cyclin-dependent kinase 11B (CDK11B, Homo sapiens, UniProt P21127): 86%
Dual specificity protein kinase TTK (TTK, Homo sapiens, UniProt P33981): 66%
Myosin light chain kinase, smooth muscle (MYLK, Homo sapiens, UniProt Q15746): 100%
Casein kinase I isoform gamma-2 (CSNK1G2, Homo sapiens, UniProt P78368): 99%
Phosphatidylinositol 4-phosphate 3-kinase C2 domain-containing subunit beta (PIK3C2B, Homo sapiens, UniProt O00750): 100%
Testis-specific serine/threonine-protein kinase 3 (TSSK3, Homo sapiens, UniProt Q96PN8): 100%

Study 2
Cell line: A-375
Concentration: 100 µM
Time: 36 h
Measurement: viability
Cc1ccc(S(=O)(=O)NC(=O)NN2CCCCCC2)cc1: 48.4%
O=C1O[C@H](CO)[C@@H](O)[C@H](O)[C@H]1O: 109%
O=C(O)C1=C(CSc2nnnn2CS(=O)(=O)O)CS[C@@H]2[C@H](NC(=O)[C@H](O)c3ccccc3)C(=O)N12: 106%
Nc1cc(N2CCCCC2)nc(N)[n+]1[O-]: 112%
C[C@@H]1O[C@@]2(CS1)CN1CCC2CC1: 108%
COc1c(N2C[C@@H]3CCCN[C@@H]3C2)c(F)cc2c(=O)c(C(=O)O)cn(C3CC3)c12: 99.3%
NC[C@@H]1O[C@H](O[C@H]2[C@@H](O)[C@H](O[C@@H]3[C@@H](O)[C@H](N)C[C@H](N)[C@H]3O[C@H]3O[C@H](CO)[C@@H](O)[C@H](O)[C@H]3N)O[C@@H]2CO)[C@H](N)[C@@H](O)[C@@H]1O: 91.2%
CO[C@]12C[C@@H](COC(=O)c3cncc(Br)c3)CN(C)[C@@H]1Cc1cn(C)c3cccc2c13: -1.08%

Study 3
Target: Maternal embryonic leucine zipper kinase (MELK, Homo sapiens, UniProt Q14680)
Sequence of UniProt Q14680 (whole entry, looked up): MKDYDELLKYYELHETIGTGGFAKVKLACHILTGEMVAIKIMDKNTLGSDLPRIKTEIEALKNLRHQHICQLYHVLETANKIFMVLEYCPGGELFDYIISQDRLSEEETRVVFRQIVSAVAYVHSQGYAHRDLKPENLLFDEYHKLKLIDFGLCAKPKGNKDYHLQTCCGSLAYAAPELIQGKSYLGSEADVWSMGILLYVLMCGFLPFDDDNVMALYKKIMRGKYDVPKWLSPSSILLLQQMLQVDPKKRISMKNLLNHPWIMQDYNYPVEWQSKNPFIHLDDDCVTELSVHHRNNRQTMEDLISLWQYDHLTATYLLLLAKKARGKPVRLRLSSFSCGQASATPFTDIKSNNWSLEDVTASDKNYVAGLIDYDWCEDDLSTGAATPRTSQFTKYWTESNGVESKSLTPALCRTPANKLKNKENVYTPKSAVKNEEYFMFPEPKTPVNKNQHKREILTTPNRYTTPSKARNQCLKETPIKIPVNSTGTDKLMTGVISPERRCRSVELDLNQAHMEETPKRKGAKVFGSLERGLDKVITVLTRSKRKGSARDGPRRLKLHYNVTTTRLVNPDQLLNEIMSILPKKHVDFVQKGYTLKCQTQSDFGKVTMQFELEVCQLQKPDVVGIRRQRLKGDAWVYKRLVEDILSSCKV
Read-out: enzyme activity
Action: inhibitor
Concentration: 0.5 µM
Relative to: control
Measurement: remaining activity
CC[n+]1c(/C=C/N(C)c2ccccc2)n(-c2ccccc2)c2ccc(-c3nc4ccccc4s3)cc21: 93.4%
CCCC(=O)Oc1ccc2[nH]c(C(=O)c3cc4ccccc4[nH]3)cc2c1: 96.4%
Oc1ccc(Nc2nc(-c3ccc(Cl)cc3)cs2)cc1: 100%
CC#CC(=O)Nc1cc2c(Nc3ccc(F)c(Cl)c3)ncnc2cn1: 101%
N#CC(=C(N)Sc1ccc(N)cc1)c1ccccc1C(F)(F)F: 96.1%
Cc1cncc2cccc(S(=O)(=O)N3CCCN(C(=O)CN)C[C@@H]3C)c12: 83%
O=S(=O)(NCCNC/C=C/c1ccc(Br)cc1)c1cccc2cnccc12: 75.1%
Nc1nccc(-c2c(-c3ccc(F)cc3)ncn2C2CCNCC2)n1: 100%
COc1cc(Nc2c(C#N)cnc3cc(OCCCN4CCN(C)CC4)c(OC)cc23)c(Cl)cc1Cl: 25.8%
O=C1NC(=O)C(c2c[nH]c3ccccc23)=C1c1c[nH]c2ccccc12: 82%

Study 4
Target: Calcium/calmodulin-dependent protein kinase type II subunit alpha (CAMK2A, Homo sapiens, UniProt Q9UQM7)
Sequence of UniProt Q9UQM7 (whole entry, looked up): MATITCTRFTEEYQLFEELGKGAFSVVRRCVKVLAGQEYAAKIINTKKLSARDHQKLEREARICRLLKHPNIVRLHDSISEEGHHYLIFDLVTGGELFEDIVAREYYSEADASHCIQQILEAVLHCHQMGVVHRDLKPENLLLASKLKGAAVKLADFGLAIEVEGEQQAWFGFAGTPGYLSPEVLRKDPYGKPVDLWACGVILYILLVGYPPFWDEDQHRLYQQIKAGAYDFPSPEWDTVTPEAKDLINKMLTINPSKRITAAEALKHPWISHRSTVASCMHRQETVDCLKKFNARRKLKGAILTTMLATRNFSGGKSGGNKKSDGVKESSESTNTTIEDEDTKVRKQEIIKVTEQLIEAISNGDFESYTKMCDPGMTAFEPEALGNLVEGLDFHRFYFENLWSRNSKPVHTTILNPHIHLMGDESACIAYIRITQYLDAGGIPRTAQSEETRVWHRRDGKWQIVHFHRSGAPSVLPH
Read-out: enzyme activity
Action: inhibitor
Concentration: 10 µM
Measurement: inhibition
CC(C)C(=O)C(=O)O: -57%
CCN(CC)c1ccc(C(=C2C=CC(=[N+](CC)CC)C=C2)c2cc(S(=O)(=O)O)ccc2S(=O)(=O)[O-])cc1: 18%
OCCN1CCN(CCCN2c3ccccc3Sc3ccc(Cl)cc32)CC1: -7%
Nc1ccc(NC(=O)c2ccc(C(F)(F)F)cc2)nc1: 5%
COc1ccc2c(c1)OC(O)C(=O)N2O (stereo not drawn): 6%
